Measurements of several laboratories.
Each line is one published result; not all experiments were run side by side. Several values in a cell are separate wells, animals, samples, runs or records. ± marks the error that the study gave.

`CCN(Cc1ccc(F)cc1)c1ccc(CO)c(Cl)c1` has an AST of 587 U/L (male F344 rat, serum; oral, 100 mg/kg/day, 2 days).
`CC(C)(C(=O)N1CCOc2c(C#N)cncc2C1)C(F)F` — result for “subjects with dizziness TEAE”: 33.3% (human, both sexes; oral, 30 mg single dose).
`FC(F)(F)c1ccc(CNc2ccc(Cc3c[nH]c4ncc(Cl)cc34)cn2)cn1`: “treatment-related adverse events” 9% (item: face oedema; human, advanced solid tumours, all patients; oral, 1000 mg/day, any grade).
Under “decreased appetite TEAE incidence”, `COc1ccc([C@@H](O)c2cc(-c3ncnc4cc(N5CCOCC5)ccc34)c(F)cc2Cl)nn1` is recorded as 0% (locally advanced rectal cancer patients; 50 mg, with: capecitabine and radiotherapy).
For `CN(CCC(=O)O)C(=O)c1ccc2c(c1)CC[C@@H]1[C@@H]2CC[C@]2(C)C(c3cncc(F)c3)=CC[C@@H]12`, “total bilirubin change” read 0.45 mg/dL (premenopausal women, endometriosis pain, serum; 60 mg twice daily, visit 5, median; relative to: baseline).
`CC1=C(c2cccc(O)c2)[C@H](c2ccc(OCCN3CC(CF)C3)cc2)Oc2ccc(O)cc21` has an AUC(0-24 h) of 1100 ng·h/mL (human, plasma; oral, 1000 mg single dose, geometric mean).
For `O=c1c2ccccc2oc2ccccc12`, the solubility was 0.0875 mole fraction (tricaprin-tricaprylin mixture; 75 °C, tricaprin fraction 0.77).
`O=C(O)c1cccc(C(=O)O)c1`: “apparent dissolution enthalpy” 2.88 kcal/mol (betaine/propylene glycol DES-water; DES mass fraction 0.40).
Under “participants with serious TEAEs”, `C[C@H]1CN(C(=O)CC#N)[C@]12CCN(c1ncnc3[nH]ccc13)C2` is recorded as 0% (human; oral, dose not given).
`CCS(=O)(=O)Nc1ccc(Oc2ccc(F)cc2F)c(-c2cn(C)c(=O)c3[nH]ccc23)c1` gave a dose-normalised Cmax of 9.94 ng/mL/mg (human, plasma; oral, 2 mg, cycle 1 day 8, geometric mean).
For `Cn1c(=O)n(C2CCC(=O)NC2=O)c2cccc(C#CCOC3CCN(C[C@H]4CC[C@H](n5cc(NC(=O)c6cnn7ccc(N8C[C@H]9C[C@@H]8CO9)nc67)c(C(F)F)n5)CC4)CC3)c21` (stereo partly drawn), “H/D exchange half-life” read 2.6 h and 1.9 h (0.5 µM, pH 7.8).
The serum concentration of `CCN(CC)CCNC(=O)c1c(C)[nH]c(/C=C2\C(=O)Nc3ccc(F)cc32)c1C` is reported as 57.3 ng/mL (LC-MS; human, serum; 25 mg, 24 h).
`Cc1cc(C)c(S(=O)(=O)NCc2ccccn2)cc1C` gave a logP of 2.55 (octanol/buffer; pH 11).
Under “subjects with adverse event”, `CC(C)n1c(Nc2cccnc2)nc2cnc(Nc3ccc(N4CCN(C)CC4)cc3)nc21` is recorded as 0% (item: aspartate aminotransferase increased; healthy male subjects; oral, 150 mg, study, with: rifampin).
For `CCCCOC(=O)N1CCN(C(=O)[C@H](CP(=O)(O)O)NC(=O)c2cc(N3CC[C@H](OC)C3)nc(-c3ccccc3)n2)CC1`, “change from baseline” read -5.8 ± 26 µmol/L (item: urate; human, serum; 8 mg, 24 h post-dose).
For `Nc1c(CC(=O)O)cccc1C(=O)c1ccc(Br)cc1`, “scaled metabolic intrinsic clearance” read 47.1 mL/min/kg (cynomolgus monkey hepatocytes).
`O=C(Cc1ccc(-c2cccs2)cc1)Nc1cc(C2CC2)[nH]n1` gave a logP of 4.19 (octanol/buffer, 40 mM buffer; pH 11).
`COc1cc(CCC(=O)O)ccc1O[C@@H]1O[C@H](C(=O)O)[C@@H](O)[C@H](O)[C@H]1O` gave a CSF concentration of 1.7 nM (human, cerebrospinal fluid; concentration not given, median).
`CC[C@@H]1CN(C(=O)NCC(F)(F)F)C[C@@H]1c1cnc2cnc3[nH]ccc3n12`: “zero-order input duration” 3.29 h (population PK modelling; human; oral, extended-release formulation, outliers re-estimated).
`C[C@@H](N)C1CCN(S(=O)(=O)c2cccc3cnccc23)CC1` — result for “participants with photophobia”: 0% (healthy volunteers; 75 mg, fasted).
The compound remaining of `Cc1cc(NC(=O)c2cccc(NC(=O)/C=C/CN(C)C)c2)ccc1Nc1nccc(-c2cccnc2)n1` is reported as 78% and 76.1% (Wistar rat male, blood plasma; 1 µM, 2 h).
